Measured values of several laboratories.
A part holds a random share of what one study measured. Substitutions count along the parent as printed.

Study 1 — target: CCNE2, cyclin fold, Cln2 fusion (human); technique: yeast growth competition, sequencing; matrix: yeast; notes: strong parent motif; baseline: not given; reading: higher = stronger binding; endpoint: normalised enrichment score
Starting sequence: SCAPER docking peptide (human); SNARRSLNFGGST; partner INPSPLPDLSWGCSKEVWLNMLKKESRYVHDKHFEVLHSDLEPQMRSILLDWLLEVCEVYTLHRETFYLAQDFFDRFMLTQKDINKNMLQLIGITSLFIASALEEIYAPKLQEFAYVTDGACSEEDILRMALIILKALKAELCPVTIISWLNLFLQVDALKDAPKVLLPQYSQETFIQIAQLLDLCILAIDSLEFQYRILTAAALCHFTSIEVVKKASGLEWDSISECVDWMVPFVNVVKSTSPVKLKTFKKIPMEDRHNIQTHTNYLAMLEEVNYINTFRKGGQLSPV
SNARRGLNFGGST [S6G]: 1.08
SNARRSWNFGGST [L7W]: -0.0927
SNARPSLNFGGST [R5P]: 0.139
SNARRSLNFGGSN [T13N]: 1.91
SNARRELNFGGST [S6E]: 0.812
VNARRSLNFGGST [S1V]: 0.79
SFARRSLNFGGST [N2F]: 1.4
SNARRSLNFMGST [G10M]: 0.979

Study 2 — technique: RNAcompete; form: RNA; matrix: in vitro; tested at: 20 nM; notes: 7-mer, probes averaged, single round; baseline: mean of 7-mers; reading: higher = stronger binding; endpoint: 7-mer Z-score
Target: PABPC1L2, full length, GST fusion (mouse, UniProt A0ABA7IW68)
Residues (chain): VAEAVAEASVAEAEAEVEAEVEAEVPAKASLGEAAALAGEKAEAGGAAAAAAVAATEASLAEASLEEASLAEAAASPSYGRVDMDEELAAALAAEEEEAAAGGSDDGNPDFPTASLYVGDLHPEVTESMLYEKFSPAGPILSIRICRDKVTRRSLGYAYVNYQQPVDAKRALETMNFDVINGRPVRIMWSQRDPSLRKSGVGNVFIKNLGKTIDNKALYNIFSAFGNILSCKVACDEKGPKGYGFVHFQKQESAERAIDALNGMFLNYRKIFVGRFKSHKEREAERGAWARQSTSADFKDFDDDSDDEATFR
UCGGCUC: -0.409
UACAUUU: 0.0551
UCUGUCG: -0.304
UGCAGCC: -0.237
AUAUAAG: 0.122
GAAGGGU: 0.129
UCAGUGA: -0.133
GUCAGAC: -0.289

Study 3 — technique: RNA Bind-n-Seq; form: RNA; matrix: in vitro; tested at: not given; notes: RNA with constant flanks, ends assumed; baseline: input RNA pool; reading: higher = stronger binding; endpoint: bound/input enrichment
Target: RING finger protein unkempt homolog, zinc fingers 1-6, GST-SBP tag (UNK, Homo sapiens, UniProt Q9C0B0, residues 30-357)
Residues (chain): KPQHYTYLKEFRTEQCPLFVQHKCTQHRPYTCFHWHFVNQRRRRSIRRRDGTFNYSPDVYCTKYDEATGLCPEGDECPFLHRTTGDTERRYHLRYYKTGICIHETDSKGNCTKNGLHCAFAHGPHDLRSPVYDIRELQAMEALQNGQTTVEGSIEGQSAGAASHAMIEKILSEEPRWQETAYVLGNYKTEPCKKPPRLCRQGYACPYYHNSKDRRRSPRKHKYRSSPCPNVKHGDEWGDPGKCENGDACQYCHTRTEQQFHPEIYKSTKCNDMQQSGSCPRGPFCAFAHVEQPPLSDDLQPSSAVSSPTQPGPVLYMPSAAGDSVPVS
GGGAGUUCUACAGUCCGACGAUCAAUAAGCAUGUUAUGUAUAUUGUCUCGUGUUUUUAUUUUUACACCAUAUUGUAUUACACUUUCCGUAUUCACCAGCAUAAUCACUGUCUGCCUAAAAUAUGCAACUCUUUGCAUUACAAUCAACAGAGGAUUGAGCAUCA: 0.345 ratio
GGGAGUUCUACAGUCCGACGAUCUGCUUUGAAAAUACCGGAGAGCUCAUUCUCCAGUCCGGCUCUUUCUCCUUCCAGAACUUCACCGAGAUUUUCACCGAUCAAGAGAUCGGGGAGUUACUAAGCACCACCCAUCCUGCCAACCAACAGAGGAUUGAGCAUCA: 0.207 ratio
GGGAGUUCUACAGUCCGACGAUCAUGAGGGCUCCUAAACACUUUCUUCCUGAGAUGUUAAGCAAAGUAAUCAUCCUGUCACCCGACCGAAGCGAUGAAGAUAAAGAAAAAGCAAGUUCUUUGAUCAGUUUACUCAAACAGGAACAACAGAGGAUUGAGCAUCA: 0.11 ratio
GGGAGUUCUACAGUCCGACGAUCAGGCCUUGGUUUACACCCAGAUCCAUUUAUAUGGAAGCAUCUACAGUGGAUUGUAAUGAUUCCGGUCUUUUAACUUUCCCAGCCAGAUUGCCAGCUAACACACAGAUUCUUCUCCUACAGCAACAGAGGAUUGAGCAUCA: 0.191 ratio
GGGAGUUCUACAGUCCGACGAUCGACAGUUGGUAACUAGGUUCUCUGACCUUUGUUCUACAGGCAGAUCCAGCAAACCCUUUGCCGCACUGUAAAUACUUUGGCUUCGAUAAUGUUCUUAUUACUCUAACCAAUCAUAACUGGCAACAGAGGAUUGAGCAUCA: 0.072 ratio
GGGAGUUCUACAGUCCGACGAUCACUAAGACUGAAUAUGAACCUGAUCGCAAAAAAGGAAAAGCACGUCCUCCCAAGACCGCCGAGUUCACCGUCAGCAUCACCGAGGGUGUCACCGAGAGGUUUAAGGUCUCCGUGCUGGUCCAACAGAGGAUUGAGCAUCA: 0.0616 ratio
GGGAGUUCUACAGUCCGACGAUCACUGGAGUUGUGCACAGCACCGCAGCUAGUGGGCCUGGCUGGGGGUGCAGAAGGGCAGGGCCGUUCUUUCCAUUUCCCCUUGCAGCUACACUUACUUUCUCCCUGACUACCAAAUGGAGUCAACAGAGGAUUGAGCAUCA: 0.159 ratio
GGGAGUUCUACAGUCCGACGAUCUUGUCGAAGACUCAACGAAAGACUCCAACCGUUAUUCAUAAACAUUACCAAAUACAUCGCAUCCGACAUUUUUACAUGAGAAAAGUCAAAUUUACUCAACAGAAUUACCAUGAUAGACUUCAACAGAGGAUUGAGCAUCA: 1.65 ratio

Other studies, line by line
COc1cc(C(=O)N2CCC(N3CCN(C)CC3)CC2)ccc1Nc1ncc2c(n1)N(C)c1ccccc1C(=O)N2C — inhibition (PI4KA (mouse); probe labelling, KiNativ, measured: SGTPMQSAAkAPYLAK peptide, ATP site; brain tissue lysate (mouse); 1 µM, together with: ATP acyl-phosphate probe): -8.7%

A few entries again (study 3):
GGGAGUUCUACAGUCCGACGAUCAUGAGGGCUCCUAAACACUUUCUUCCUGAGAUGUUAAGCAAAGUAAUCAUCCUGUCACCCGACCGAAGCGAUGAAGAUAAAGAAAAAGCAAGUUCUUUGAUCAGUUUACUCAAACAGGAACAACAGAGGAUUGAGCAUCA: 0.11 ratio
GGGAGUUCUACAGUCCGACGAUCAGGCCUUGGUUUACACCCAGAUCCAUUUAUAUGGAAGCAUCUACAGUGGAUUGUAAUGAUUCCGGUCUUUUAACUUUCCCAGCCAGAUUGCCAGCUAACACACAGAUUCUUCUCCUACAGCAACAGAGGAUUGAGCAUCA: 0.191 ratio
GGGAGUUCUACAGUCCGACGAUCUUGUCGAAGACUCAACGAAAGACUCCAACCGUUAUUCAUAAACAUUACCAAAUACAUCGCAUCCGACAUUUUUACAUGAGAAAAGUCAAAUUUACUCAACAGAAUUACCAUGAUAGACUUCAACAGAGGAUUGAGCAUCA: 1.65 ratio
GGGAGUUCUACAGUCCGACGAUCACUAAGACUGAAUAUGAACCUGAUCGCAAAAAAGGAAAAGCACGUCCUCCCAAGACCGCCGAGUUCACCGUCAGCAUCACCGAGGGUGUCACCGAGAGGUUUAAGGUCUCCGUGCUGGUCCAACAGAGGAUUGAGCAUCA: 0.0616 ratio
